Assay results gathered from unrelated publications.
Each line is one published result; not all experiments were run side by side. ± gives the spread as reported.

For `O=C1CCC(N2Cc3cc(CO)c(F)cc3C2=O)C(=O)N1` (centres unmarked), the Tmax was 1.2 ± 0.7 h (male CD-1 mouse, plasma; oral, 10 mg/kg of parent drug).
With `O=C(O)C[C@H](O)C[C@H](O)/C=C/c1c(C2CC2)nc2ccccc2c1-c1ccc(F)cc1` the Tmax was 1.4 h (FVB wild-type mouse, plasma; oral, 5 mg/kg, together with: rifampin 20 mg/kg oral).
With `Cc1c(C(=O)O)ccc2c3n(nc12)[C@@H]1[C@H](C3)N(CC2CC2)[C@@]2(C(=O)Nc3cc(Cl)ccc32)[C@H]1c1cccc(Cl)c1F` the Tmax was 9 h (female BALB/c nude mouse, SJSA-1 xenograft, plasma; oral, 1 mg/kg twice daily, 2 doses).
With `NS(=O)(=O)c1ccc(-c2cc(Nc3ccc(OC(F)(F)F)cc3)ncn2)cc1` the Tmax was 1 h (male BALB/c mouse, plasma; oral, 20 mg/kg).
`CN1CCC[C@H](CN2c3ccccc3Sc3ccccc32)C1.Cl` has a Tmax of 2 h (fasted female ICR mouse, eye; oral, 16 mg/kg).
With `COc1ccc2nc(-c3ccccn3)c(N(C)c3ccc(F)cc3)n2c1` the Tmax was 0.25 h (CD1 mouse, male, fasted, plasma; oral, 50 mg/kg, together with: ABT 50 mg/kg).
`Cc1cc(N[C@H]2CCc3ccc(Cl)cc3C2)n2nc(C(C)(F)F)nc2n1` has a Tmax of 4 h (NSG mouse, whole blood; oral, 30 mg/kg).
For `CCOC(=O)C1=C(CN2CCC[C@@H]2C(=O)Nc2ccc(B(O)O)cc2)NC(c2nccs2)=N[C@H]1c1ccc(F)cc1Br`, the Tmax was 0.33 ± 0.14 h (ICR mouse, plasma; oral, 10 mg/kg).
With `CCn1ncc2c(Nc3ccc(OC(F)(F)F)cc3)ncnc21` the Tmax was 0.5 h (male BALB/c mouse, plasma; oral, 20 mg/kg).
`CN1CCCC1CCNS(=O)(=O)c1ccc2c(c1)CN(CC1CCCCC1)CC2` (centres unmarked) has a Tmax of 1 h (mouse, plasma; oral, 10 mg/kg).
The Tmax of `COc1cc(C)[nH]c(=O)c1CN1CCc2c(Cl)cc([C@H](OC)C3COC3)c(Cl)c2C1=O` is reported as 0.5 h (female CB17 SCID mouse, HT-1376 xenograft, plasma; 75 mg/kg, day 1).
The Tmax of `O=c1c2cc(Cl)c(CO)cc2[nH]c(=S)n1Cc1cccnc1` is reported as 0.25 h (mouse, plasma; oral, 50 mg/kg).
`Cc1cc(NC2Cc3cc(F)c(F)cc3C2)n2nc(C(C)(F)F)nc2n1` has a Tmax of 2 h (NSG mouse, whole blood; oral, 30 mg/kg).
With `CN[C@H](CC(C)C)C(=O)N[C@H]1C(=O)N[C@@H](CC(N)=O)C(=O)N[C@H]2C(=O)N[C@H]3C(=O)N[C@H](C(=O)N[C@H](C(=O)O)c4cc(O)cc(O)c4-c4cc3ccc4O)[C@H](O)c3ccc(c(Cl)c3)Oc3cc2cc(c3O[C@@H]2O[C@H](CO)[C@@H](O)[C@H](O)[C@H]2O[C@H]2C[C@](C)(N)[C@H](O)[C@H](C)O2)Oc2ccc(cc2Cl)[C@H]1O` the Tmax was 36 h (C57BL/6N mouse H1, faeces; po, 0.5 mL, 20 mg/mL solution).

Repeated from above:
`Cc1cc(N[C@H]2CCc3ccc(Cl)cc3C2)n2nc(C(C)(F)F)nc2n1` has a Tmax of 4 h (NSG mouse, whole blood; oral, 30 mg/kg).
